Experimental data from different studies.
Protocols differ between the studies behind these lines. “And” joins repeats or separate records; there may be more than shown. ± gives the spread as reported.
Dehaloperoxidase B ferric: Dehaloperoxidase B, ferric (Amphitrite ornata, UniProt Q9NAV7)
KEAP1 Kelch domain: Kelch-like ECH-associated protein 1, Kelch domain (KEAP1, Homo sapiens, UniProt Q14145)
Protein lin-28 homolog A: Protein lin-28 homolog A (Mus musculus, UniProt Q8K3Y3)
Sequence of UniProt Q8K3Y3 (whole entry, looked up): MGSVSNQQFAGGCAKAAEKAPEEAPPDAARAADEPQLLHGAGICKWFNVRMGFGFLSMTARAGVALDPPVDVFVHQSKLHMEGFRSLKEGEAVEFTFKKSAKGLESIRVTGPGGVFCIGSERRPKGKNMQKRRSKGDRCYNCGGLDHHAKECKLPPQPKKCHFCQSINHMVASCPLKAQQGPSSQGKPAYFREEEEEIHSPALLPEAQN
MT-CYB/UQCRFS1: MT-CYB/UQCRFS1 (Homo sapiens, UniProt P00156+P47985)
Sequence of UniProt P00156 (whole entry, looked up): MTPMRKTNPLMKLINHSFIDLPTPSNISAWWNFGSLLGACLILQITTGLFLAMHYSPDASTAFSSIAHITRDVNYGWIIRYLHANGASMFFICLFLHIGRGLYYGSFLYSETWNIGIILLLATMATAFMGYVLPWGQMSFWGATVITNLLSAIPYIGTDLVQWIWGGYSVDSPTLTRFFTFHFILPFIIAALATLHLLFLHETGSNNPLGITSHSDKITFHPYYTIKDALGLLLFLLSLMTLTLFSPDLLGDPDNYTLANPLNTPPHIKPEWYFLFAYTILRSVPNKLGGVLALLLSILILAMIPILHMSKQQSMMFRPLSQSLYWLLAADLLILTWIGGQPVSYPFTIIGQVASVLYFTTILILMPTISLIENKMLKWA
Sequence of UniProt P47985 (whole entry, looked up): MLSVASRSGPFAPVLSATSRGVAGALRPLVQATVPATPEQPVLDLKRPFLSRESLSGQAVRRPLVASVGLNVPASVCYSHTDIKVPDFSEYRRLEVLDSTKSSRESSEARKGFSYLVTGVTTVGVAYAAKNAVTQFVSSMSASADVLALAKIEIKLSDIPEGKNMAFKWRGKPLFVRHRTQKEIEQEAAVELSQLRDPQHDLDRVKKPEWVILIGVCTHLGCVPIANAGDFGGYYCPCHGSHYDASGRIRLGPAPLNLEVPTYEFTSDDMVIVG
TOP2A: DNA topoisomerase 2-alpha (TOP2A, Homo sapiens, UniProt P11388)
Sequence of UniProt P11388 (whole entry, looked up): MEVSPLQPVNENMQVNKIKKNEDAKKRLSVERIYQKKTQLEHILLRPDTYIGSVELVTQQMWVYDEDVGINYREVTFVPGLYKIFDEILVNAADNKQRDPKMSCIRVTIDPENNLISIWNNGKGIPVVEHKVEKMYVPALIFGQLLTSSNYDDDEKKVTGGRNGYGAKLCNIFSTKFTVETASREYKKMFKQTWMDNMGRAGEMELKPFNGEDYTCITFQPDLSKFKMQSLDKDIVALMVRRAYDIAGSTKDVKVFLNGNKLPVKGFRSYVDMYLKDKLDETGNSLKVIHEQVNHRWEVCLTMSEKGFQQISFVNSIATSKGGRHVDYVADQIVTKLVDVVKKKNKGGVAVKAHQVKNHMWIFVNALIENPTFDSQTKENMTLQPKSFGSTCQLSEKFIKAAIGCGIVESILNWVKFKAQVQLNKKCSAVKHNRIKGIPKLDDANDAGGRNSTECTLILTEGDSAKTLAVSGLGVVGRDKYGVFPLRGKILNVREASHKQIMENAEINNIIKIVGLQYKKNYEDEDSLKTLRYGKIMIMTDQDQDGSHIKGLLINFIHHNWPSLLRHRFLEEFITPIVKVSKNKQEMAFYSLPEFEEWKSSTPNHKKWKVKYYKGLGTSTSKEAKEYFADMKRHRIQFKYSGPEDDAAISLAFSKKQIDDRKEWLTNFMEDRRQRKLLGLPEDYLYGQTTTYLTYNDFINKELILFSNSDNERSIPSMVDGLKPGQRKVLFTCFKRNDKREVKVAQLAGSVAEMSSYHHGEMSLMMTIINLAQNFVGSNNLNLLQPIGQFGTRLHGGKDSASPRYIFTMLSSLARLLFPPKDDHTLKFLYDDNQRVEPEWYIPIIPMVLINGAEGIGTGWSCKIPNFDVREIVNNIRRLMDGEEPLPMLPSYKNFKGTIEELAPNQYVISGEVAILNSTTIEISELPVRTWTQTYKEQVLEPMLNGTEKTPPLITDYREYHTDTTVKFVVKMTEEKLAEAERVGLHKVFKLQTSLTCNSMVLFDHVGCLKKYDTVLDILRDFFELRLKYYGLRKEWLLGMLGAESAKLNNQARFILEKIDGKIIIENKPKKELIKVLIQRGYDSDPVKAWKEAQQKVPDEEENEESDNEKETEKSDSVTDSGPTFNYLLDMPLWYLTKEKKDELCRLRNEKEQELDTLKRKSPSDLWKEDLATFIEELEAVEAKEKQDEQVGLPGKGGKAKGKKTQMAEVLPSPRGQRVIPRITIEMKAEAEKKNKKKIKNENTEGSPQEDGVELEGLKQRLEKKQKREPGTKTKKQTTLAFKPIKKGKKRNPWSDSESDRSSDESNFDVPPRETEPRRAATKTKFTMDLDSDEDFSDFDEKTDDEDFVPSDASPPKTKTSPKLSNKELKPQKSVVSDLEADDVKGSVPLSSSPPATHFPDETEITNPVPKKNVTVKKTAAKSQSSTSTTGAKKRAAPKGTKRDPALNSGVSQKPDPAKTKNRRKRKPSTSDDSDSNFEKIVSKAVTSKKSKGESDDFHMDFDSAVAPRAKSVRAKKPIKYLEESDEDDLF
T1: RNA aptamer; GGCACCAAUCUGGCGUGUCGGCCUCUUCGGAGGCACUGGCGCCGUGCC
Sequence of UniProt P61619 (whole entry, looked up): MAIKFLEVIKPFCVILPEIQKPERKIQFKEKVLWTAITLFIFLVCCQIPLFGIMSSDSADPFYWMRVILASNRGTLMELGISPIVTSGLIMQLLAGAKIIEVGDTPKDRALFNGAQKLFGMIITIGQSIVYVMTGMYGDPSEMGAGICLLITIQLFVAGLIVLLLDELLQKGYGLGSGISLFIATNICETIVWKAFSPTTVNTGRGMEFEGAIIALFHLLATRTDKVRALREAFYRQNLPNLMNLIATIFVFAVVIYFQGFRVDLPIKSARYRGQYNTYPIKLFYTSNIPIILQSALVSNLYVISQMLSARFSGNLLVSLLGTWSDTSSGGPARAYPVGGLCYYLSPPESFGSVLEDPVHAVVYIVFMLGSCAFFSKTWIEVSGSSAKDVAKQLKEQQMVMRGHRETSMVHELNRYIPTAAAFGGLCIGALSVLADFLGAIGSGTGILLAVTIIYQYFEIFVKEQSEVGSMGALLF
Sequence of UniProt P63092 (whole entry, looked up): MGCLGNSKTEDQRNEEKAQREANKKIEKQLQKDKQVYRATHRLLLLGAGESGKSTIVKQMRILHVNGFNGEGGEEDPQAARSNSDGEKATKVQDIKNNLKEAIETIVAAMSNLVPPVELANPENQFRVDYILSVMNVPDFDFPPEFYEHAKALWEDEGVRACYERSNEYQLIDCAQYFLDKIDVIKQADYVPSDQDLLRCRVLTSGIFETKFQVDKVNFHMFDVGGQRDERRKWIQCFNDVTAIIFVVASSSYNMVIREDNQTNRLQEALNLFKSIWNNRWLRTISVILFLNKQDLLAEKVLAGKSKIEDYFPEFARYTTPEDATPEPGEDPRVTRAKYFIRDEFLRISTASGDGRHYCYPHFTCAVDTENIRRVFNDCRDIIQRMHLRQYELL
Sequence of UniProt Q16774 (whole entry, unmodified, looked up): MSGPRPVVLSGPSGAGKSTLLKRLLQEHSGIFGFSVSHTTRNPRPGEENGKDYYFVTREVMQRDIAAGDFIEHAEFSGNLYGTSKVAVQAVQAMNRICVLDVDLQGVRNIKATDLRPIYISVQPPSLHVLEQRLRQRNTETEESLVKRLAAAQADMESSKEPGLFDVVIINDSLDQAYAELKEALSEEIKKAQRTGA
Sequence of UniProt P51575 (whole entry, unmodified, looked up): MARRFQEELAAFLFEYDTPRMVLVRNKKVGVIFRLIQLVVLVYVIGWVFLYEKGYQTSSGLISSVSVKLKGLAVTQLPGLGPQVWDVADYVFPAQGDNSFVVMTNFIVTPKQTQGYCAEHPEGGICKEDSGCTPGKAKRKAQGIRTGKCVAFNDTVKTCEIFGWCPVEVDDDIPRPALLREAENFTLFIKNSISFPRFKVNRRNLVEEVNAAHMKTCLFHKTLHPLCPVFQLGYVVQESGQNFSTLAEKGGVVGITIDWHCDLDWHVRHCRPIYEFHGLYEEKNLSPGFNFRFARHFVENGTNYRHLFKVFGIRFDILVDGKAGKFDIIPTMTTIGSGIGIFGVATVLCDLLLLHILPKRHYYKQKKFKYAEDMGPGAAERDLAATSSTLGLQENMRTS
Sequence of UniProt P09874 (whole entry, looked up): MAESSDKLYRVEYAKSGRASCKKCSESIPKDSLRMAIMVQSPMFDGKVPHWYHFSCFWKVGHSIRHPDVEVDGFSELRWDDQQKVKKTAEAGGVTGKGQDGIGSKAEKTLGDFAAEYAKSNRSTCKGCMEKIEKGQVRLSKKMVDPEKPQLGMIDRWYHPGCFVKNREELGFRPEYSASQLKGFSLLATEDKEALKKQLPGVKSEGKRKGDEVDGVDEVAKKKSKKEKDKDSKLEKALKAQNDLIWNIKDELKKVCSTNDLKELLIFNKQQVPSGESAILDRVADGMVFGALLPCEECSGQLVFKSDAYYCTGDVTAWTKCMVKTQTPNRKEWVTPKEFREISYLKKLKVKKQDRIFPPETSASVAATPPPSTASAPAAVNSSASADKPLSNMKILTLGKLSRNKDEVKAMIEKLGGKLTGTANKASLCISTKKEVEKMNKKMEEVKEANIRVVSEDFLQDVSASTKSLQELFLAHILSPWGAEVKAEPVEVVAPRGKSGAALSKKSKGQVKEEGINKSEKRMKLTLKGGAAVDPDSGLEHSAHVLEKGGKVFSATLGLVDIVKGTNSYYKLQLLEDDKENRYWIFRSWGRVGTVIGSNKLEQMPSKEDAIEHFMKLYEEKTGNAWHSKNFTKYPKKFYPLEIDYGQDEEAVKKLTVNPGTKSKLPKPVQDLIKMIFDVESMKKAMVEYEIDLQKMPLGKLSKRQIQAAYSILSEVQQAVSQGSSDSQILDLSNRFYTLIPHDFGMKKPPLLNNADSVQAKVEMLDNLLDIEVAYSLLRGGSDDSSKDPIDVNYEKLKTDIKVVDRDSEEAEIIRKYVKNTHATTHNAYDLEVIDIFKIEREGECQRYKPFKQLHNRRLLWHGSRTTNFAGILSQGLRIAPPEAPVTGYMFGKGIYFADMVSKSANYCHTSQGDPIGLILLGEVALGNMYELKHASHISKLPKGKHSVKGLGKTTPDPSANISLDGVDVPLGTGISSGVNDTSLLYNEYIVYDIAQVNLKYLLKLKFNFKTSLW

CCCCC[C@H](O)/C=C/[C@H]1[C@H](O)CC(=O)[C@@H]1C/C=C\CCCC(=O)O
GTP hydrolysis (GNAS, with Gbeta and Ggamma (Homo sapiens, UniProt P63092); modulator; 100 µM, without A2AR; relative to: Gs alone): 76.8% and 91.8% and 94.7% and 89.6%

Nc1nc2c(ncn2[C@@H]2O[C@H](COP(=O)(O)O)[C@@H](O)[C@H]2O)c(=O)[nH]1
reaction rate (GUK1 (Homo sapiens, UniProt Q16774, R41A); enzyme activity, NADH-coupled; 1000 µM): 0.977 s⁻¹ and 0.773 s⁻¹ and 0.758 s⁻¹

NCCS(=O)(=O)O
normalised MST signal (Sodium- and chloride-dependent taurine transporter (SLC6A6, Homo sapiens, UniProt P31641, S402A); binding, microscale thermophoresis; 1 mM, room temperature, with: 50 nM labelled protein; higher = more binding): -0.0237

CCCCOc1cc(C(=O)NCCN(CC)CC)c2ccccc2n1
potency reduction (PKD2L1 (Homo sapiens, UniProt Q9P0L9, F549I); concentration not given; relative to: wild type): 2 to 10 fold

O=C1C=Nc2ccc(Br)cc21
share of total products (Dehaloperoxidase B ferric; product, HPLC; with: 5-bromoindole 500 µM, H2O2 100 µM): 42.7%

C=CC(=O)N1CCC[C@@H](n2nc(-c3ccc(Oc4ccccc4)cc3)c3c(N)ncnc32)C1
remaining activity (Muscle, skeletal receptor tyrosine-protein kinase (MUSK, Homo sapiens, UniProt O15146); 10 µM): 148%

CCOCc1nc(O)c(-c2nnc(Cc3ccc(Cl)cn3)o2)c(O)c1-c1c(OC)cccc1OC
activity (cardiovascular GPCR panel human; up to 30 µM): inactive

CC(=O)N[C@@H](C)C(=O)N[C@@H](CC(N)=O)C(=O)NCC(=O)N[C@@H](CC(N)=O)C(=O)N[C@@H](C)C(=O)N[C@@H](CCC(=O)O)C(=O)N[C@@H](CC(N)=O)C(=O)N[C@@H](CCC(=O)O)C(=O)N[C@@H](CCC(=O)O)C(=O)N[C@@H](CC(N)=O)C(=O)NCC(=O)N[C@@H](CCC(=O)O)C(=O)N[C@@H](CCC(N)=O)C(=O)N[C@@H](CCC(=O)O)C(=O)N[C@@H](C)C(=O)N[C@@H](CC(=O)O)C(=O)N[C@@H](CC(N)=O)C(=O)N[C@@H](CCC(=O)O)C(=O)N[C@H](C(=O)N[C@@H](CC(=O)O)C(N)=O)C(C)C
binding stoichiometry (KEAP1 Kelch domain; ITC; concentration not given): 1.09

CC[C@@H]1[C@H](F)C(=O)N[C@@H]1COc1nccc2cc(C(N)=O)c(OC)cc12
inhibition (Inhibitor of nuclear factor kappa-B kinase subunit epsilon (IKBKE, Homo sapiens, UniProt Q14164); ATP-site probe binding, ActivX profiling; THP-1 cell lysate; 0.01 mM, Lys1 site): 20.6%

O=c1[nH]c(-c2ccccn2)nc2c1CSCC2
Hill slope (Protein lin-28 homolog A): -1.1

CC[C@H](C)[C@H](NC(C)=O)C(=O)N[C@@H](CC(N)=O)C(=O)N[C@H](C(=O)N[C@@H](CCCNC(=N)N)C(=O)N[C@@H](CCCCN)C(=O)N[C@@H](CCCNC(=N)N)C(=O)N[C@@H](CC(N)=O)C(=O)N[C@H](C(=O)N[C@@H](CCC(=O)O)C(=O)N[C@@H](CO)C(=O)NCC(=O)N[C@@H](CCC(=O)O)C(=O)N[C@@H](CCC(=O)O)C(=O)N[C@@H](CCC(=O)O)C(=O)N[C@@H](CC(C)C)C(=O)N[C@@H](C)C(=O)N[C@@H](CO)C(=O)N[C@@H](CCCCN)C(=O)N[C@@H](CC(C)C)C(=O)N[C@@H](CC(=O)O)C(N)=O)C(C)C)C(C)C
TΔS (KEAP1 Kelch domain; binding, ITC; pH 7, 298.15 K): -10.6 kcal/mol

O=CNc1ccccc1C=O
product formed (Dehaloperoxidase B ferric; product, HPLC; 5 min, pH 7, 25 °C, enzyme 10 µM, with: indole and H2O2 500 µM each): 2.45 M

CC1CCCN(C(=O)c2cc3ncccn3n2)C1 (stereo not drawn)
fold enrichment (YTH domain-containing family protein 2 (YTHDF2, Homo sapiens, UniProt Q9Y5A9); binding, affinity selection mass spectrometry; relative to: other proteins in batch): 0.785

CC(C)(O)c1ccccc1CC[C@@H](SCC1(CC(=O)O)CC1)c1cccc(/C=C/c2ccc3ccc(Cl)cc3n2)c1
BAL fluid total cells (Cysteinyl leukotriene receptor 1 (Mus musculus, UniProt Q99JA4); female MC-Cysltr2 knockout mice, lung; intraperitoneal, 30 mg/kg): decreased

COc1cc(F)ccc1-c1ncnc(Nc2cccc(C[S@](C)(=N)=O)c2)n1
remaining activity (LIM domain kinase 1 (LIMK1, Homo sapiens, UniProt P53667); kinase activity; 10 µM, with: 10 µM ATP): 64%

O=C(O)c1ccc(Nc2ncc3c(n2)-c2ccc(Cl)cc2C(c2c(F)cccc2F)=NC3)cc1
remaining activity (MLK1(h); kinase activity; 1 µM): 81%

CC(C)C(=O)Nc1n[nH]c2cc(-c3cccc(NS(=O)(=O)C4CC4)c3)ccc12
ADP produced (Phosphatidylinositol 4-phosphate 5-kinase type-1 gamma (PIP5K1C, Homo sapiens, UniProt O60331); ADP-Glo; 10 µM, with: 10 µM ATP): 0.626 µM

Nc1ncnc2c1ncn2[C@@H]1O[C@H](COP(=O)(O)CP(=O)(O)OP(=O)(O)O)[C@@H](O)[C@H]1O
calcium influx (P2X purinoceptor 1 (P2RX1, Homo sapiens, UniProt P51575, R139A); calcium influx; 10 nM; relative to: ionomycin response): 0.494% and 2.11% and 1.48%

Nc1nc2c(ncn2[C@@H]2O[C@H](COP(=O)(O)OP(=O)(O)O[C@H]3O[C@H](CO)[C@@H](O)[C@H](O)[C@@H]3O)[C@@H](O)[C@H]2O)c(=O)[nH]1
Km (AncA-Alt ancestral enzyme; substrate, GDP-Glo GDP release; pH 6.5, 27 °C, apparent Km, with: 25 mM mannose acceptor): 470 ± 20 µM

Cc1cc(CSC(=N)N)c(C)cc1CSC(=N)N
Hill slope (Protein lin-28 homolog A): -1.9

Cc1noc(NS(=O)(=O)c2ccc(N=NN(O)c3ccccc3)cc2)c1C
inhibition (α-glucosidase, rat intestine; enzyme activity; 240 µg/mL, with: 4-nitrophenyl α-D-glucopyranoside): 55 ± 0.09%

NC(=O)NOCCCCCCCCCCCCCC[P+](c1ccccc1)(c1ccccc1)c1ccccc1.O=C([O-])C(F)(F)F
oxygen consumption rate (MT-CYB/UQCRFS1; complex III-dependent respiration, Seahorse XF96; HCT-116; 0.5 µM, 24 h; relative to: control): 76.4 ± 3.01%

CN(CCO)c1ccc(/C=C(\C#N)c2ccc(C#N)cc2)cc1
Kd (T1, RNA aptamer; fluorescence titration, Hill fit; apparent): 1140 nM

CN1CCN(c2cc(-c3ccncc3)c(-c3ccc4ccccc4c3)nn2)CC1
activation (Platelet-activating factor receptor (PTAFR, Homo sapiens, UniProt P25105); agonist, FLIPR; 12.5 µM): -1.7%

NC(=O)NOCCCCCCCCCCCC[P+](c1ccccc1)(c1ccccc1)c1ccccc1.O=C([O-])C(F)(F)F
oxygen consumption rate (MT-CYB/UQCRFS1; complex III-dependent respiration, Seahorse XF96; HCT-116; 4 µM, 24 h; relative to: control): 35 ± 16.2%

CC[C@@H](C)[C@@H](NC(=O)[C@@H](Cc1ccc(O)cc1)NC(=O)[C@H]1CCCN1C(=O)[C@@H](CCCNC(=N)N)NC(=O)[C@H](N)Cc1c[nH]cn1)C(=O)N[C@H](C)C(=O)N[C@H](Cc1c[nH]cn1)C(=O)N[C@H](CCCNC(=N)N)C(=O)N[C@@H](C(=O)N[C@H](Cc1ccc(O)cc1)C(=O)N[C@H](CO)C(=O)N[C@H](Cc1ccccc1)C(N)=O)C(C)C
surface expression (Transferrin receptor protein 1 (Tfrc, Mus musculus, UniProt Q62351); flow cytometry; DC2.4; 2 h, pH 7.4, unit not given; relative to: 0 h): 0.839 and 0.923

CC(C)CC(=O)N[C@H](C(=O)N[C@H](C(=O)N[C@@H](CC(C)C)[C@@H](O)CC(=O)N[C@@H](C)C(=O)N[C@@H](CC(C)C)[C@@H](O)CC(N)=O)C(C)C)C(C)C
association rate constant (Cathepsin D (CTSD, Homo sapiens, UniProt P07339); surface plasmon resonance): 2220 M⁻¹ s⁻¹

Cc1cccc(N(O)N=Nc2ccc(S(=O)(=O)Nc3onc(C)c3C)cc2)c1
inhibition (α-glucosidase, rat intestine; enzyme activity; 180 µg/mL, with: 4-nitrophenyl α-D-glucopyranoside): 30 ± 0.04%

CCO[C@H](COc1ccc(C(F)(F)F)cc1)CSc1ccc(OCC(=O)O)c(C)c1
Emax (Peroxisome proliferator-activated receptor alpha (Rattus norvegicus, UniProt P37230); receptor activation, agonist; species rat; relative to: internal control agonist): 20%

CCCC(C)N1CCC(N(Cc2cccc(CNC(=O)CCl)c2)C(=O)Nc2cccc(C(F)(F)F)c2)CC1 (stereo not drawn)
covalent adduct formation (DCN1-like protein 1 (Homo sapiens, UniProt Q96GG9); covalent binder, LC-TOF mass spectrometry; 60 µM, overnight, 4 °C, with: DCN1-like protein 1 30 µM): 0%

CCN(CCO)CCCC(C)Nc1ccnc2cc(Cl)ccc12 (stereo not drawn)
FLuc/RLuc ratio (Protein transport protein Sec61 subunit alpha isoform 1 (Homo sapiens, UniProt P61619); reporter gene, inhibitor, dual luciferase; HEK293 with SP-CD4-FLuc reporter; concentration not given): 6.16 and 5.34 and 5.42 and 6.6

C=CC(=O)N1CCC(COCC(=O)N2CCN(c3nc(-c4cnc(N)nc4C(F)F)nc(N4CCOC[C@@H]4C)n3)CC2)CC1
remaining binding (Phosphatidylinositol 5-phosphate 4-kinase type-2 beta (PIP4K2B, Homo sapiens, UniProt P78356); KINOMEscan; 1 µM): 86%

O=c1nc(SCc2cc(F)cc(C(F)(F)F)c2)nc(SCc2ccc3sccc3c2)[nH]1
mean linear DNA (TOP2A; DNA cleavage; 7.8 µM): 0%

Oc1ccc(/C=C/c2cc(O)cc(O)c2)cc1
koff decrease (O-methyltransferase (Sorghum bicolor, UniProt A0A1B6PFV1); biolayer interferometry; with: saturating sinefungin; relative to: apo): 2.22 fold

OC[C@H]1OC(O)[C@H](O)[C@@H](O)[C@@H]1O (stereo partly drawn)
maximal inhibition (Hexokinase-3 (HK3, Homo sapiens, UniProt P52790, N221A); enzyme activity, coupled G6PDH): ~50%

COc1c(O)c(C)cc2c1C(=O)c1c(O)cccc1C2=O
viability (HK-2 co-cultured with HepaRG; MTT; 133.33 µM, 24 h; relative to: untreated control): 68.2 ± 11.6%

O=C(COP(=O)(O)O)[C@@H](O)[C@H](O)[C@H](O)COP(=O)(O)O
thermal stability ratio (Poly [ADP-ribose] polymerase 1 (PARP1, Homo sapiens, UniProt P09874); thermal proteome profiling; HepG2 cell lysate; concentration not given, 57 over 37 °C; relative to: compound over control): 0.6 and 0.556 and 0.444

O=c1nc(SCc2cc(F)cc(C(F)(F)F)c2)nc(SCc2ccc3nc(Cl)ccc3c2)[nH]1
ATP hydrolysis rate (TOP2A; ATPase activity; 15.6 µM, with: ATP 0.025 mM): 0.166 µM/min and 0.249 µM/min

Cc1cccc(N(O)N=Nc2ccc(S(=O)(=O)Nc3nccs3)cc2)c1
inhibition (α-glucosidase, rat intestine; enzyme activity; 300 µg/mL, with: 4-nitrophenyl α-D-glucopyranoside): 45 ± 1.38%

CC1=C(/C=C/C(C)=C/C=C/C(C)=C/C=O)C(C)(C)CCC1
relative kon (Rhodopsin (RHO, Bos taurus, UniProt P02699, G270A); retinal entry, Trp FRET; lipid bicelles; 28 °C, G270A mutant; relative to: wild-type rhodopsin): 1.01 ± 0.08

c1coc(CNc2ncnc3nc[nH]c23)c1
remaining fluorescence (Gelsolin, peptide (GSN, Homo sapiens, UniProt P06396); amyloid aggregation, ThT fluorescence; 100 µM, 12 h, 37 °C, inhibitor to peptide 1:1 molar; relative to: untreated): 48%

NC(=O)NOCCCCCCCCCC[P+](c1ccccc1)(c1ccccc1)c1ccccc1.O=C([O-])C(F)(F)F
oxygen consumption rate (MT-CYB/UQCRFS1; complex III-dependent respiration, Seahorse XF96; HCT-116; 20 µM, 24 h; relative to: control): 52.1 ± 4.24%

CN1CCC(=C2c3ccccc3Sc3ccccc32)CC1
agonist activity (5-hydroxytryptamine receptor 1F (HTR1F, Homo sapiens, UniProt P30939); agonist; concentration not given): inactive

NCCCCC(=O)O
normalised MST signal (Sodium- and chloride-dependent taurine transporter (SLC6A6, Homo sapiens, UniProt P31641, Y138A); binding, microscale thermophoresis; 244 nM, room temperature, with: 50 nM labelled protein; higher = more binding): 0.00193

NC(=O)NOCCCCCCCCCCCCCCCCCCCC[P+](c1ccccc1)(c1ccccc1)c1ccccc1.O=C([O-])C(F)(F)F
oxygen consumption rate (MT-CYB/UQCRFS1; complex III-dependent respiration, Seahorse XF96; HCT-116; 0.03 µM, 24 h; relative to: control): 98.8%
